# Experimental data from different studies.
# Each numbered part is a random draw from the data of one study; scales do not carry over between parts. Changes are numbered by the printed parent chain.

# Set 1
# Target: CCNF, cyclin fold, Cln2 fusion (human)
# Technique: yeast growth competition, sequencing
# Sample: yeast
# Setting: strong parent motif
# Baseline: not given
# Reading: higher = stronger binding
# Parent: CDC6 docking peptide (human); TLKGRRLVFDNQL; partner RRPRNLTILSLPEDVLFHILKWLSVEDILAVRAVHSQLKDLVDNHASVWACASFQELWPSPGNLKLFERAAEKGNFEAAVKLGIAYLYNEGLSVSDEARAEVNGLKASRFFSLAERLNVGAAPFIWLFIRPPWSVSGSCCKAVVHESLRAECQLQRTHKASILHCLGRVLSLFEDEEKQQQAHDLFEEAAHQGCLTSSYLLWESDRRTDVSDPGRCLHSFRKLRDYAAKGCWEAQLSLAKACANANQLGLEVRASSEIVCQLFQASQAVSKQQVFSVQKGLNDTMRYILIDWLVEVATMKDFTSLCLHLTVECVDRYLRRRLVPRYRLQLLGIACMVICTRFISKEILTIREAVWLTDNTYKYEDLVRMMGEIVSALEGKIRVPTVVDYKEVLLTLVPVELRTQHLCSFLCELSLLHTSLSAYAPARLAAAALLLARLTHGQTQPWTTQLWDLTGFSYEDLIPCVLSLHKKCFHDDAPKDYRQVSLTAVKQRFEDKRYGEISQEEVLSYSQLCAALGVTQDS
Substitution,normalised enrichment score
TDKGRRLVFDNQL [L2D],6.35
TLKGPRLVFDNQL [R5P],-0.199
TLKGRRLVFMNQL [D10M],8.31
TLKGRNLVFDNQL [R6N],2.6
TLKWRRLVFDNQL [G4W],2.27
TLKGRRLVFDMQL [N11M],8.51
TKKGRRLVFDNQL [L2K],8
TLKGRSLVFDNQL [R6S],4.93
TLKGRRLVFENQL [D10E],6.05
TLKGRRLVFDSQL [N11S],8.3
TLKGDRLVFDNQL [R5D],-0.551
TLKGRRLVFDNNL [Q12N],8.8
TLKGRRLVFDNQG [L13G],7.98
TLKGYRLVFDNQL [R5Y],0.941
TEKGRRLVFDNQL [L2E],5.66
TLKGLRLVFDNQL [R5L],1.65
TLKGRGLVFDNQL [R6G],2.39
TLKGRRLVFVNQL [D10V],7.24
TLKGRRLDFDNQL [V8D],8.34
TLKGRRLVWDNQL [F9W],7.15
ALKGRRLVFDNQL [T1A],8.39
TLKGRRLVFDFQL [N11F],9.45
TLKYRRLVFDNQL [G4Y],3.06
TLKGRRAVFDNQL [L7A],0.901
TAKGRRLVFDNQL [L2A],6.79

# Set 2
# Target: BATF, bZIP domain (human)
# Technique: DHFR protein complementation
# Sample: yeast
# Setting: single substitutions, most at no-binding floor
# Baseline: wild-type JUN-FOS pair
# Reading: higher = stronger binding
# Parent: JUN, bZIP domain (human); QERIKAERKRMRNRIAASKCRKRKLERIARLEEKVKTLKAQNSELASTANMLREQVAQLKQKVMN; partner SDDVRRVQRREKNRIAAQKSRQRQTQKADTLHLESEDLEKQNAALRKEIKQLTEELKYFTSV
Substitution,binding fitness
Q55S,-0.134 natural log
K36P,-0.945 natural log
A46P,-1.26 natural log
Q41D,-0.135 natural log
L59H,-0.12 natural log
K34D,-0.126 natural log
L45E,-1.17 natural log
V56N,-0.933 natural log
E32W,-0.362 natural log
A57T,-0.0448 natural log
M51I,0.00146 natural log
A40T,0.125 natural log
R30D,0.119 natural log
M51N,0.0185 natural log
M51C,-0.00918 natural log
R30S,0.118 natural log
S43M,0.00688 natural log

# Set 3
# Target: RNA binding protein fox-1 homolog 2, RRM domain, GST-SBP tag (RBFOX2, Homo sapiens, UniProt O43251-10, residues 100-194)
# Technique: RNA Bind-n-Seq
# Molecule type: RNA
# Sample: in vitro
# Tested at: 365 nM
# Setting: natural RNA segment, single round, ends assumed
# Baseline: no-protein control
# Reading: higher = stronger binding
# All sequences stand within: GGGAGUUCUACAGUCCGACGAUC … UGGAAUUCUCGGGUGCCAA
# Construct (chain): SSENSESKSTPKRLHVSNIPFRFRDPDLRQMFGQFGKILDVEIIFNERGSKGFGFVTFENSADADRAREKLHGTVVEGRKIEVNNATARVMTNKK
Oligonucleotide,RBNS enrichment (R)
AUGUGAGCAUUCUCAAACAAGAGACUAACUGAUGCUCCUGCUGUUAAAAAGGCAGAACUAGGGAGGUGACUUUAGGCCUCCUGCUGUGGCCUCUGAAGAAGGUGACUCUU,0.319
UAUAUGUAUAUUAUAUGUAUAUGUACACAUAUAUAUUCUAUUAUUAGGCAUACAAGUGGCUCCUGUUCCACAAUACUAACUACUAUAUUUCUACAUUGUGACUUGUUUUA,0.428
GUUUUUCUCAGCGCAGUUUUGUUCUGUGUGUCCAUUGGAUUACAAACUUUAUUAAAAAAUACAAAACCCUCAGGUGUGAAGGUGGUUGUCACUCAGUGGGCGCCUCGGUU,0.367
CAGUGACCCACAUUGAUGAGUGGUCUGAGCAGCUGGUGGGUUACUUUACCCAGUGUGUUCCUGCAUUGUUUAGUGUGGAACUGUGGGCAGGUGCCGAGUGUCAGAUAGCA,6
AACUCAGCCUCAAAUCUCAACUGUCAGGCCCUACAAAGAAAAUGGAGAGCCUCUUCUGGUGGAUGCUUUGCUCCCUCUGAGCUGCCCAUGCUGGUCUGGCAAACACACCU,0.192
UUUUCACAAGUAUGGCGGCUUACCACGAGAUAGCUACUGGGUAAGCAAAGCCUGGGACAUUUGCAAUAGCAAGCACCCUCUGUAGUCUCCUGCAGAGCCAUAGCUUCAAU,0.272
UCAUCCUUGCUGUGGGUCAUCCUUGCUGUGGAGAUCCAUUCCCCACCUUUCCUGUGGCCCAACCUUUUAUUUAAAUGUGCUACCCUCUGCCUCAAGGCUUGGUUCCUGGA,0.544
UCUGGAGAGGGACCAAGUCUUUUCUGCCCACAUCUCACACAAUUGAGGUGUCUGAACAAGCUUGGGGAGGGUCUAUAAGGGGUAGGCUCAAAAAAAAAAAAACCCAUUUG,0.791

# Set 4
# Target: RING finger protein unkempt homolog, zinc fingers 1-6, SBP tag (UNK, Homo sapiens, UniProt Q9C0B0, residues 30-357)
# UniProt Q9C0B0, sequence (30-357, looked up): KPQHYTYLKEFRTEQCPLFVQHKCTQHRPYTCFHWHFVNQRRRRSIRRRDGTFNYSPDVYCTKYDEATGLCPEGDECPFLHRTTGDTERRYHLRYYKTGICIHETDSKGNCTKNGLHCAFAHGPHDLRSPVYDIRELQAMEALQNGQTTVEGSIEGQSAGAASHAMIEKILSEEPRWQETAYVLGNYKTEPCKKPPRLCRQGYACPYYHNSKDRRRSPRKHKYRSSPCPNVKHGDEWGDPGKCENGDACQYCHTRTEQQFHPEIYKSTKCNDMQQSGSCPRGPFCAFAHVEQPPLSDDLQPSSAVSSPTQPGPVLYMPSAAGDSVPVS
# Technique: RNA Bind-n-Seq
# Molecule type: RNA
# Sample: in vitro
# Tested at: 100 nM
# Setting: RNA with constant flanks, vertebrate orthologous sites, ends assumed
# Baseline: input RNA pool
# Reading: higher = stronger binding
# All sequences stand within: GGGAGUUCUACAGUCCGACGAUC … CAACAGAGGAUUGAGCAUCA
Oligonucleotide,bound/input enrichment [ratio]
CAGUGCCAUGGUGGAUGGCUCUGAGCUCAAAAAAGUGCGAUCCAAUUCGCGCAUUUACCAUCGCUACUUUCUCCUUGAUGCCGACAUGCAGUCUUUGAGAUGGGAGCCUUCAAAGAAGGA,0.215
UUUUAAAGUUUUUUUUUUAAUUUAAUUUUUCCUUUUGGGGGUAAAGUUUGCUCUACCAAAUAGUGAUCGUAACAAAUUGAUCUGUUUUGGAUGUUGCUAUAGUGACAUGCAGUUAUAUAU,0.712
UCCUUUUAGGAUGAAGCUGUUACACCAGGUAUCACGGGUCUGGAAAACAGAUGGCUUAUCGAGUUGUUCUUACAGAUUACUCUCUGUGGAGCACAAUCCUUUAUAUACUAACAUCACAGU,1.16
GUUGUGACCCAUUUAACAUACACAAAAAGCUAGCCAAAAAGAAUCUACAUGUAAUUGACUUAGAUGAUGCCACUUUUCUGAGUGCAAAGUUUGGAAGGCAGCUCGUACCUGGUUGGAAGC,0.804
CAGUUUAGAUAAUCUUUUUAUUUUUUUUCUUUUCCCUCAAUCCUUUUUUAUUUUUAAAACUAGUUCUUUUGUAAUGUGGUGUUCAAAACAGAAUUGAAAACUGGCACCCCAUCUCUUUGA,7.44
GUUGUGACCCCUUUAACAUCCAUAAAAAGCUGGCCAAAAAAAAUCUGCAUGUCAUUGACUUAGAUGAUGCCACUUUCCUGAGUGCGAAGUUUGGCAGGCAGCUGGUGCCUGGUUGGAAGC,0.456
CCCUCUGAACCCCAUAUCUUCUGUUUCAUAAUACAGAAGCAUCCUUUUCAAUUGUAUGAGUGGACUUGUUUUAAUUUUAGAGAAACCUCCAGUACAGAUACUGUGGGUUGACAUGGGAAA,0.811
CAACUCAAUGGUUGAGGGCUCGGAACUCAAAAAGGUCCGCUCCAACUCUAGAAUAUACCAUAGGUAUUUUUUACUGGAUGCCGACAUGCAGAGCCUGAGGUGGGAGCCAUCGAAGAAAGA,0.145

# For quick reference, copied from above (set 1):
Substitution,normalised enrichment score
TLKGRRLVFDFQL [N11F],9.45
TLKGRRLVFVNQL [D10V],7.24
TEKGRRLVFDNQL [L2E],5.66
